Results from different studies.
Parts stem from different laboratories: compare values within a part only. Substitutions count along the parent as printed.

Block 1 — method: protein-binding microarray; form: double-stranded DNA, one strand shown; sample: in vitro; tested at: 940 nM top; setting: 60-bp whole probe; added: salmon DNA 0.4 mg/ml; relative to: random background probes; direction: higher = stronger binding; all sequences stand within: GCCTAGCAC … GTCTTGATTCGCTTGACGCTGCTG
Target: Interferon regulatory factor 5, full length, phosphomimetic (IRF5, Homo sapiens, UniProt Q13568-2, residues 1-514, S451D/S453D/S456D/S462D)
Strand	fitted relative affinity [z-score]
TTAGGACTGGGACTGTGTTAGTGCTAG	-0.502
TTAGGACTGGACACTGGGATAGTGCTA	-0.362
ATCCCGCCTGCCCCACAGAAGTGCTAG	0.368
GACGGTAACGGGTATCGGGACGTGCTA	0.805
TCATGTCTTAGATTCCTACTGTGCTAG	0.232
GACGATATCGGGTTTCGATACGTGCTA	5.42
GACTGTATCGGTCTCGGGACGTGCTAG	3.66
GACGGTCTCCTACTGCTGAGGTGCTAG	-0.234
TTAGGACTGGACTTTCGGTTAGTGCTA	2.33
TTAGGGCTGCTACTGCTTTAGTGCTAG	-0.67
TCATCTTGTTCTCTCTGACTGTGCTAG	1.28
GACGGTATCGGACTGTGGACGTGCTAG	2.6
TTACGACTGCTACTGCTTTAGTGCTAG	-0.0966
GACGATTTCAGTATCGAGAAGTGCTAG	2.38
GAGGGTCTCGGTCTCGGGACGTGCTAG	2.36
TCACCTCTACCTCCTGGGACTGTGCTA	0.565
GACGATTTCAGGTCCGAGACGTGCTAG	0.0896
GTGTTTTCACTTTTCCTACAGTGCTAG	3.07

Block 2 — method: DHFR PCA, deep sequencing; sample: yeast; added: (+)-ABA 0 µM; relative to: wild-type fitted maximum; direction: higher = stronger binding
Target: ABI1, truncated, D143A, DHFR fusion (Arabidopsis thaliana)
Setting: methotrexate growth selection, single substitutions
Parent: PYL1, truncated, DHFR fusion (Arabidopsis thaliana); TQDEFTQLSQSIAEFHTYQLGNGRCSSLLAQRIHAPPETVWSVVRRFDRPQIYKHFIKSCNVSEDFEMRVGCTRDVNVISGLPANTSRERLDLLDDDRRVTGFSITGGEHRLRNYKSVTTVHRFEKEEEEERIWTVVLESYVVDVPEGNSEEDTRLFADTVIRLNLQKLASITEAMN
Change	relative binding score [%]
S87C	35.8
C25F	9
G102T	-5.76
K116C	5.79
E152A	13.3
D92V	-2.68
A170I	-11.3
I133P	46.8
R32Q	14.8
E147Y	10.5
H16I	3.74
R46A	20.2
G108D	7.88
D65Y	-0.987
N22S	36.9

Block 3 — method: aptamer microarray, sandwich; form: DNA with 2'F-ANA; sample: in vitro; tested at: 200 nM; added: Cy3 exosite-II aptamer, 400 nM; direction: higher = stronger binding; strand: GGTTGGTGTGGTTGG
Target: Prothrombin, mature alpha-thrombin (F2, Homo sapiens, UniProt P00734)
Setting: whole 15-mer aptamer, many near background
Modification	mean fluorescence intensity [a.u.]
2'F-ANA at 2 3 4 6 8 9 11 14 15	205
2'F-ANA at 2 3 5 6 7 9 10 14 15	49.5
2'F-ANA at 1 7 8 9 12 13 14	73.4
2'F-ANA at 1 3 5 6 9 10 11 12	50.2
2'F-ANA at 1 2 4 5 8 9 11	55.7
2'F-ANA at 1 3 4 8 9 13 14 15	61.1
2'F-ANA at 2 6 7 8	516
2'F-ANA at 2 4 5 6 8 10 11 13 14 15	50.4
2'F-ANA at 1 2 4 7 10 12 13 14	44.9
2'F-ANA at 2 5 6 8 9 10 11 12 13	57.3
2'F-ANA at 1 2 8 9 11	162
2'F-ANA at 3 5 7 8 10 12 15	74.2
2'F-ANA at 2 4 6 8 11 13	183
2'F-ANA at 1 2 3 4 6 7 11 13 14 15	62.1
2'F-ANA at 4 5 6 7 8 11 12 13 15	156
2'F-ANA at 1 2 3 7 8 12 15	569
2'F-ANA at 2 3 5 7 8 9 11	112
2'F-ANA at 1 5 6 8 9 10 11 13	47.7
2'F-ANA at 2 3 4 5 6 7 8 12 15	218
2'F-ANA at 1 2 3 4 5 7 8 9 10 12 13	48.6
2'F-ANA at 2 3 4 5 7 9 11 14 15	50.6
2'F-ANA at 1 2 3 4 5 7 11 15	52.7
2'F-ANA at 4 8 9 10 11 13 14	54.4

Block 4 — method: competition protein-binding microarray; form: double-stranded DNA, one strand shown; sample: in vitro; tested at: 2 µM; added: Pho4 competitor, 0.05 µM; direction: higher = stronger binding; all sequences stand within: … GTCTTGATTCGCTTGACGCTGCTG
Target: Centromere-binding protein 1, full length, His-tagged (CBF1, Saccharomyces cerevisiae, UniProt P17106, residues 1-351)
Sequence of UniProt P17106 (whole entry, looked up): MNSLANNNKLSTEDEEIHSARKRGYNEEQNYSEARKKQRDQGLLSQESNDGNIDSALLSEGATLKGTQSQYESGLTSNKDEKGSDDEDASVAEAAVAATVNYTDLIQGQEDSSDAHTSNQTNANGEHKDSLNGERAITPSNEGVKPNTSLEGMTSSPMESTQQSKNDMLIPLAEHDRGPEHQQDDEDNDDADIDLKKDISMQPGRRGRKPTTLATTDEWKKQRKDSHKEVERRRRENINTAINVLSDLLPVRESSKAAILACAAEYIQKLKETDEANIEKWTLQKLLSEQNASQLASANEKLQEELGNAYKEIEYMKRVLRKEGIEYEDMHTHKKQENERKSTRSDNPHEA
Setting: whole 60-bp probe, lowest competitor level
Strand	fluorescence intensity [a.u.]
GCGGACCAAAAATCGCACGTAGCGCGATATTGTCGG	67.2
TCTGATACGTATCACCACGTGGCCGGTACTTGTTCT	1200
CATAACCTTGCCTGCCAAGTGTGGCAAGCAATGACG	70.8
GTTACCCGGTCGAGTCACGTGCGGATGCGGAGGGCA	5480
TCACGGAACAACCGTCAGCGGAGATTAGAGAAGCCT	72.4
CTTTCCCGATCTTGTTCTGTGGGTGTAGCACATTTG	71.6
CATCCCATTGCAAGACCCACGTGAAGGAGCGTCTTC	542
TCCTTGCAGTACTATCACCTGCACCGGTTACCATCC	98.3
TCACAGGAAAAGGCCCACATGCCAAAAAGGGTACCA	79
CTTCTGTAAATTTGCTCGGTGGGTGGACGCGCCCCG	91.8
GTTGCTTGCTAATTGCATGATCAAGTTGGGCCGACG	72
CCGGCGACCTCCAAGCGCGTGCCAGGTGGGCCCCTC	65.4
AAAGCGGTAATTTGTCACGGTACTTCACATATCTAT	207
GTAATAGGAATAGACCGTGTGATGGTTGCCGTCAGC	68.4
ATGGGCAAGCGCATCCATGTGGCGTTTCCTACTTTT	69.3

Block 5 — target: CCNB1, cyclin fold, Cln2 fusion (human); method: yeast growth competition, sequencing; sample: yeast; setting: strong parent motif; relative to: not given; direction: higher = stronger binding
Parent: PKMYT1 docking peptide (human); SFEPRNLLSLFED; partner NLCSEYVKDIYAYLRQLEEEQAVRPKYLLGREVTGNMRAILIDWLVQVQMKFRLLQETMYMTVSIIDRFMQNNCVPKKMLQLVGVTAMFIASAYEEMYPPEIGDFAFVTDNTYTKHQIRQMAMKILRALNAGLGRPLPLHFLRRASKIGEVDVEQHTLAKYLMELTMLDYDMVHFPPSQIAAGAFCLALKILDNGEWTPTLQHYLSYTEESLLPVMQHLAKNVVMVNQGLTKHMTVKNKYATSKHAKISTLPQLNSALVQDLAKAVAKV
Change	normalised enrichment score
F2P	0.192
L7P	-0.709
N6G	0.968
R5L	0.696
F2Q	0.00297
P4N	0.2
S1K	1.04
L8T	0.366
D13Y	0.717
E12S	0.129
N6L	-0.164
S1L	1.47
D13H	0.00507
N6W	0.0315
D13I	0.424
D13V	0.75
P4T	0.261
L7F	-0.0918

For quick reference, copied from above (block 5):
Change	normalised enrichment score
R5L	0.696
F2Q	0.00297
P4N	0.2
S1K	1.04
L8T	0.366
D13Y	0.717
E12S	0.129
N6L	-0.164
S1L	1.47
D13H	0.00507
N6W	0.0315
D13I	0.424
D13V	0.75
